Values quoted from earlier work as cited in several papers.
Each numbered part shows a few of the values that one paper quotes. ± marks the error that the study gave.
Chain of UniProt P22002 (whole entry, looked up): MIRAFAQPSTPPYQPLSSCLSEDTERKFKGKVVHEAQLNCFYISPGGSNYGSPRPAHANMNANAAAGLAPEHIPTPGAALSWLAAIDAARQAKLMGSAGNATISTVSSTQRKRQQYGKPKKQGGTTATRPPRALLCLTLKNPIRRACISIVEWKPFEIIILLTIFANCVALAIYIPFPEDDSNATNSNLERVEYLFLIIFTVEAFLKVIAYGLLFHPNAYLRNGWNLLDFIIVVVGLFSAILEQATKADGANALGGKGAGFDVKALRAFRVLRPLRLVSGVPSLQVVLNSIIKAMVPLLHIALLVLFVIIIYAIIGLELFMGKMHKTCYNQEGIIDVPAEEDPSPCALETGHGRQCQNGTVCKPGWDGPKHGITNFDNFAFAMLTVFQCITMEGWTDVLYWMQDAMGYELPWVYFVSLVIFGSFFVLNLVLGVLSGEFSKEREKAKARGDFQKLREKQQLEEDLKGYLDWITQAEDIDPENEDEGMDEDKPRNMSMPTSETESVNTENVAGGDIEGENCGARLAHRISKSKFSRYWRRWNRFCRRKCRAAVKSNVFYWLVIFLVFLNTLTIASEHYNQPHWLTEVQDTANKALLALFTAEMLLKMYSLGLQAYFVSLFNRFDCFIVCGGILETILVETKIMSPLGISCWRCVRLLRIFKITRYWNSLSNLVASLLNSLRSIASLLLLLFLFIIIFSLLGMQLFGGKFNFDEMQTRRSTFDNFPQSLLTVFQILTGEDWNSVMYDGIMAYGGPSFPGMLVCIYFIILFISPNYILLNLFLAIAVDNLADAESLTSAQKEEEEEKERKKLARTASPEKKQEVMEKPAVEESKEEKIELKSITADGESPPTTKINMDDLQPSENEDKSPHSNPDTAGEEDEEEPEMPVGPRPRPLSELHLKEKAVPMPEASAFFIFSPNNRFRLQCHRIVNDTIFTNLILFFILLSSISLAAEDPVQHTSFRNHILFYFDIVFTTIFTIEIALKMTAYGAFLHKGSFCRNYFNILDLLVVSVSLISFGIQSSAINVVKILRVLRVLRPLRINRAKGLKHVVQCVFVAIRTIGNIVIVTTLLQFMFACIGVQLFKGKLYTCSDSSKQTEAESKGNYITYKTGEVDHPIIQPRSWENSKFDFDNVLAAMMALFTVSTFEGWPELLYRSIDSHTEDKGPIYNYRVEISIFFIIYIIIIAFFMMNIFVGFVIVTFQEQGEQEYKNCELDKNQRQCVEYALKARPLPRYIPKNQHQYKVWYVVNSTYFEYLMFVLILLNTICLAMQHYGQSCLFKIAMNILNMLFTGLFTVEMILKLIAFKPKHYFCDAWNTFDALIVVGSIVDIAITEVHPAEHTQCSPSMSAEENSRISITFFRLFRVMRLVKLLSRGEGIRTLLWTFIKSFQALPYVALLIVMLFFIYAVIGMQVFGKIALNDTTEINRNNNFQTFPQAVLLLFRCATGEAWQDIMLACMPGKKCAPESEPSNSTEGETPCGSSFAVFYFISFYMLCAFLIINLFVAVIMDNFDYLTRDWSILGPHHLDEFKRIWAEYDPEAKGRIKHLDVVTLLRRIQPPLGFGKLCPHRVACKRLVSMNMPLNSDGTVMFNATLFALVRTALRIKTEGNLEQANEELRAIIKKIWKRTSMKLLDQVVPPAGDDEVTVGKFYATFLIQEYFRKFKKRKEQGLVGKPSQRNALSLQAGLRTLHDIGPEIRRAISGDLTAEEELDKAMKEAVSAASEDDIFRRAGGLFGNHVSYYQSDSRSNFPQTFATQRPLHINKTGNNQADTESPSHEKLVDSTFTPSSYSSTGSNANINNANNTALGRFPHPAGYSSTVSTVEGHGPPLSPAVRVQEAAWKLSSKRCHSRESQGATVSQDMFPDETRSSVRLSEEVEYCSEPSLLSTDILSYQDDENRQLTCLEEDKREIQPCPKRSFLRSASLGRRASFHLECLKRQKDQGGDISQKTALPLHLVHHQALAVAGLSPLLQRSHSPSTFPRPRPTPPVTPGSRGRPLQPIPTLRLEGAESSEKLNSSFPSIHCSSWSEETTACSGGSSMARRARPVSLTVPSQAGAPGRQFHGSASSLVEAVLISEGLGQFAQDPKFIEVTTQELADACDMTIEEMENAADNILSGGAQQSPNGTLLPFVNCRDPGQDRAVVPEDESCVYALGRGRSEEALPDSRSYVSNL
Chain of UniProt O42275 (whole entry, looked up): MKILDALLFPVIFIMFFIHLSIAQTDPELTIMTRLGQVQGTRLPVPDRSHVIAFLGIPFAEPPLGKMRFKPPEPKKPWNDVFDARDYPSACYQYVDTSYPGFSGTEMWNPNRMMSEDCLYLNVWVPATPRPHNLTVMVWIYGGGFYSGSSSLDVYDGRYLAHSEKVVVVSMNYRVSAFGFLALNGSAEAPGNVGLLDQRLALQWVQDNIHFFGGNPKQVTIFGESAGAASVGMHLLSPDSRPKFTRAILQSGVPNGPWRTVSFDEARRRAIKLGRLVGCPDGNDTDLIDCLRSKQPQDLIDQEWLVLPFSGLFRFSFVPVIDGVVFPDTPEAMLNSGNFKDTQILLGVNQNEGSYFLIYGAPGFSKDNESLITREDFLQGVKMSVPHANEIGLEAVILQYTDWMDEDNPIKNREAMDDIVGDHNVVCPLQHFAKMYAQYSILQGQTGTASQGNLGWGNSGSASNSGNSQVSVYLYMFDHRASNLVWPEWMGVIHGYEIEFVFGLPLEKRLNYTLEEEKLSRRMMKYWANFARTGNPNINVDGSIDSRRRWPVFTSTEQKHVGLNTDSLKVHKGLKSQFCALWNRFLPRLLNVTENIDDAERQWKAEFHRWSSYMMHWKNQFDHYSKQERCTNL
Chain of UniProt P41595 (whole entry, looked up): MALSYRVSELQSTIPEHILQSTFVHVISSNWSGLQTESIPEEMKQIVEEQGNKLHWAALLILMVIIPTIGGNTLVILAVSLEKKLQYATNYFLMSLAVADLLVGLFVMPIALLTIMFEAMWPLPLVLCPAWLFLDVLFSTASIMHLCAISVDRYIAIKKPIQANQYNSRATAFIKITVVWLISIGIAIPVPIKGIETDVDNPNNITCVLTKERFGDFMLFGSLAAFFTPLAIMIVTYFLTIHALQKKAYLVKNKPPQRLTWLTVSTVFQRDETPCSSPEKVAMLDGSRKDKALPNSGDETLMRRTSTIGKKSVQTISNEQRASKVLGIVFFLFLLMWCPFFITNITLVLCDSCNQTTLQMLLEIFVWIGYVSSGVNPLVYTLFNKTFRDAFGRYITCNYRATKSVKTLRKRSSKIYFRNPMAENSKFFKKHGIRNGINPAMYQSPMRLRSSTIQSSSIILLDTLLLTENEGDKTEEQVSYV

Series 1
Target: HLA class I histocompatibility antigen, A alpha chain, allele A*80:01 (Homo sapiens, UniProt P04439)
Observed: peptide-MHC binding
Molecule type: peptide
Endpoint: IC50
ETWVETWAF: > 20000 nM
ATATWFQYY: 14.7 nM
HLKEKSSLR: > 20000 nM
EMKEAFHGL: > 20000 nM
ISDEFMWRY: 163 nM
STNTLPTEY: > 20000 nM
RKLTNPANK: > 20000 nM
KAYKIISLK: > 20000 nM
PLFPGITRV: > 20000 nM
ALTDLGLIY: 1.93 nM
AARHKHQVM: > 20000 nM
EYAPFARLL: > 20000 nM
KVGFIMLFH: 1 nM
HVTGRWNWW: > 20000 nM
WLGWGHAWV: > 20000 nM
HSNLNDTTY: > 20000 nM
ESEVDDPAM: > 20000 nM
TVYGLGADV: > 20000 nM
YMKFFGNFK: > 20000 nM
ATPHSVWVF: > 20000 nM
WLYDLWGQL: > 20000 nM
FTGWRDPGL: > 20000 nM
VVEKQSGLY: 1 nM
TVFCFFNYI: > 20000 nM
FIVEHINAM: > 20000 nM

Single results of other studies
20S proteasome: 20S proteasome (Plasmodium falciparum, UniProt A0A5K1K7U1+Q8I261+Q8IJT1)
CCOCC(=O)N1CCC[C@H](C(=O)NCc2nc(-c3ccc(C#N)cc3)cs2)C1 — IC50 (20S proteasome; enzyme activity, inhibitor; added: Suc-LLVY-AMC 20 µM): 20 nM
CC[C@@H](C(N)=O)N1CCCC1=O — protective index (mouse; i.p., corneal kindling model): > 44.2
CC(=O)N(C)[C@H]1CCN(C(=O)c2cnc3c(c2)C[C@](C)(c2ccc(F)cc2)N3)C1 — Cmax (Wistar Han rats, male; 50 mg/kg/day, NOAEL dose): 39.9 µM
ClC1=C(Cl)C2(Cl)C3C(Cl)C=CC3C1(Cl)C2(Cl)Cl (stereo not drawn) — logD (pH 7.4): 5.54
Oc1ccc(C2(c3ccc(O)cc3)c3ccccc3-c3ccccc32)cc1 — IC50 (MDA-kb2; cell viability; 24 h): 1320 nM
CCCCCOc1ccc(-c2cc(-c3ccc(C(=O)N[C@H]4C[C@@H](O)[C@@H](O)NC(=O)[C@@H]5[C@@H](O)[C@@H](C)CN5C(=O)[C@H]([C@H](O)CC(N)=O)NC(=O)[C@H]([C@H](O)[C@@H](O)c5ccc(O)c(OS(=O)(=O)O)c5)NC(=O)[C@@H]5C[C@@H](O)CN5C(=O)[C@H]([C@@H](C)O)NC4=O)cc3)no2)cc1 — Km (NTCP; substrate): 40 µM
C/C=C1/CN2[C@H]3Cc4c([nH]c5ccccc45)[C@@H]2C[C@@H]1[C@]3(CO)C(=O)OC — IC50 (mu opioid receptor; cAMP level): 3100 nM
O=C(c1ccc(F)cc1)C1CCN(C2Cc3c(cccc3OCCF)CC2O)CC1 (single isomer, unassigned; (-)) — Ki (VAChT): 0.59 nM
O=S(=O)(O)C(F)(F)C(F)(F)C(F)(F)C(F)(F)C(F)(F)C(F)(F)C(F)(F)C(F)(F)F — half-life (mice, male): 43 days
O=C(N[C@@H]1CCC2C3Cc4ccc(O)c5c4[C@@]2(CCN3CC2CC2)C1O5)c1cccc(I)c1 (stereo partly drawn) — EC50 (Mu-type opioid receptor (Oprm1, Mus musculus, UniProt P42866)): 0.32 ± 0.03 nM
C/C=C1/CN2CC[C@]34C(=C(C(=O)OC)[C@H]1C[C@H]23)Nc1ccccc14 — Ki (kappa opioid receptor): 89 nM
C[C@@H](O)[C@H]1C(=O)N2C(C(=O)O)=C(S[C@@H]3CN[C@H](C(=O)N(C)C)C3)[C@H](C)[C@H]12 — Km (Metallo-beta-lactamase type 2, Δ35 (blaNDM-1, Klebsiella pneumoniae, UniProt C7C422); substrate): 54 µM
ClC1=C(Cl)C2(Cl)C3C4CC(C5OC45)C3C1(Cl)C2(Cl)Cl (stereo not drawn) — logD (pH 7.4): 4.94
CO[C@H]1/C=C/O[C@@]2(C)Oc3c(C)c(O)c4c(O)c(c(/C=N/N5CCN(C)CC5)c(O)c4c3C2=O)NC(=O)/C(C)=C\C=C\[C@H](C)[C@H](O)[C@@H](C)[C@@H](O)[C@@H](C)[C@H](OC(C)=O)[C@@H]1C — victim drug AUC decrease (perpetrator; human; dose not given, added: midazolam as victim drug): 96%
O=c1c(O)c(-c2ccc(O[C@@H]3O[C@H](CO)[C@@H](O)[C@H](O)[C@H]3O)c(O)c2)oc2cc(O)cc(O)c12 — ferric reducing ability (FRAP; concentration not given): 4.8 trolox equivalents
CCCCCCCC[C@H]1O[C@H]1C/C=C/C=C/[C@H](O)CC(=O)NC1=C[C@](C)(CC)OC1=O — IC50 (Na(+)-translocating NADH-quinone reductase subunit B, whole Na+-NQR complex (nqrB, Vibrio cholerae serotype O1, UniProt Q9KPS2, G141A); enzyme activity, inhibitor; NqrB G141A mutant, isolated enzyme): 820 nM
Cc1ccsc1C(=CCCN1CCC[C@@H](C(=O)O)C1)c1sccc1C — TD50 (motor impairment; mouse; intraperitoneal): 6 mg/kg
O=C1c2c(O)cc(O)cc2OC(c2ccc(O)c(O)c2)C1O (stereo not drawn) — Ki (Acetylcholinesterase (ache, Electrophorus electricus, UniProt O42275)): 16.7 nM
O=C(c1ccc(F)cc1)C1CCN(CCn2c(=O)[nH]c3ccccc3c2=O)CC1 — Hill coefficient (5-hydroxytryptamine receptor 2B (HTR2B, Homo sapiens, UniProt P41595)): 0.6
C[C@@H]1[C@H](O)[C@@H](C)/C=C/C=C/C=C/C=C/C=C/C=C/C=C/[C@H](O[C@@H]2O[C@H](C)[C@@H](O)[C@H](N)[C@@H]2O)C[C@@H]2O[C@](O)(C[C@@H](O)C[C@@H](O)[C@H](O)CC[C@@H](O)C[C@@H](O)CC(=O)O[C@H]1C)C[C@H](O)[C@H]2C(=O)O — LD50 (mouse): 4.5 mg/kg
C[C@H](NC(=O)[C@H](CCC(N)=O)NC(=O)CCCCNC(=N)N)C(=O)N[C@@H](CCCNC(=N)N)C(=O)c1nc2ccccc2s1 — Ki (Prothrombin (F2, Homo sapiens, UniProt P00734)): 337 ± 71 nM
O=C(NC1C=C[C@H]2[C@H]3Cc4ccc(O)c5c4[C@@]2(CCN3CC2CC2)C1O5)c1cccc(I)c1 (stereo partly drawn) — ED50 (CD1 mice; subcutaneous): 0.33 ± 0.09 mg/kg
COCC(=O)N1CCC[C@H](C(=O)NCc2nc(-c3ccc(C#N)cc3)cs2)C1 — IC50 (20S proteasome; enzyme activity, inhibitor; added: Suc-LLVY-AMC 20 µM): 41 nM
NC(=O)C[S+]([O-])C(c1ccccc1)c1ccccc1 (stereo not drawn) — fraction unbound (plasma): 0.4
O=C(O)C(F)(F)C(F)(F)C(F)(F)C(F)(F)C(F)(F)C(F)(F)C(F)(F)F — half-life (mice, female): 16 days
CCOC(=O)C1=C(C)NC(C)=C(C(=O)OC)C1c1cccc([N+](=O)[O-])c1 (stereo not drawn) — IC50 (Voltage-dependent L-type calcium channel subunit alpha-1C (Cacna1c, Rattus norvegicus, UniProt P22002); inhibitor; historical measurement): 0.72 nM

For quick reference, copied from above (series 1):
WLGWGHAWV: > 20000 nM
HSNLNDTTY: > 20000 nM
ESEVDDPAM: > 20000 nM
TVYGLGADV: > 20000 nM
YMKFFGNFK: > 20000 nM
ATPHSVWVF: > 20000 nM
WLYDLWGQL: > 20000 nM
FTGWRDPGL: > 20000 nM
